Measurements from different studies.
Each line is one published result; not all experiments were run side by side. Numbers after ± are the reported error.

Compound | tested on | test | test system | conditions | how to read | quantity | value
O=C(O)C1OC(OC2C(COS(=O)(=O)O)OC(OC3C(C(=O)O)OC(OC4C(COS(=O)(=O)O)OC(OC5C(C(=O)O)OC(OC6C(COS(=O)(=O)O)OC(OC7C(C(=O)O)OC(OC8C(COS(=O)(=O)O)OC(OC9C(C(=O)O)OC(OC%10C(COS(=O)(=O)O)OC(OC%11C(C(=O)O)OC(Oc%12ccc([N+](=O)[O-])cc%12)C(O)C%11O)C(NS(=O)(=O)O)C%10O)C(OS(=O)(=O)O)C9O)C(NS(=O)(=O)O)C8O)C(OS(=O)(=O)O)C7O)C(NS(=O)(=O)O)C6O)C(OS(=O)(=O)O)C5O)C(NS(=O)(=O)O)C4O)C(OS(=O)(=O)O)C3O)C(NS(=O)(=O)O)C2OS(=O)(=O)O)C(O)C(O)C1OC1OC(COS(=O)(=O)O)C(O)C(O)C1NS(=O)(=O)O (stereo not shown) | – | – | rat, spleen | intravenous, 3600 µg/kg per day, 7 days, day 8 | – | organ-to-body weight ratio | 0.25 ± 0.02
CCCN(c1ccc(C(=O)NCCC(=O)O)cc1)S(=O)(=O)c1cc(C)c(-c2ccc(C(C)(C)C)cc2)c(C)c1 | – | – | mouse, HFD-induced obese | oral, 50 mg/kg once daily, 6 weeks | – | daily food intake | no effect
C=C(c1cc(F)c(C(=O)O)c(F)c1)c1cc2c(cc1C)C(C)(C)CCC2(C)C | – | – | Sprague-Dawley rat, male | oral, 100 mg/kg, 1 h, sesame oil vehicle | – | blood cholesterol | 122 ± 17.2 mg/dL
CCCC(CCC)NC(=O)c1ccc(OS(=O)(=O)O)c(OC)c1 | – | – | female Sprague-Dawley rat, plasma | oral, 50 mg/kg of parent drug | – | Tmax | 0.88 h
C[C@H](NC(=O)c1ccc2c(c1)C(=O)OC21c2ccc(O)cc2Oc2cc(O)ccc21)C(=O)N[C@@H](CCCCN)C(=O)N[C@@H](C)C(=O)N[C@@H](CCCCN)C(=O)N[C@@H](C)C(=O)N[C@@H](CCCCN)C(=O)N[C@@H](C)C(=O)N[C@@H](CCCCN)C(=O)N[C@@H](C)C(=O)N[C@@H](CCCCN)C(=O)N[C@@H](C)C(=O)N[C@@H](CCCCN)C(=O)N[C@@H](C)C(=O)N[C@@H](CCCCN)C(=O)N[C@@H](C)C(=O)N[C@@H](Cc1ccccc1)C(=O)N[C@@H](C)C(=O)N[C@@H](Cc1ccccc1)C(=O)N[C@@H](C)C(=O)N[C@@H](Cc1ccccc1)C(=O)O | – | – | bovine, healthy cartilage explants | 30 µM, 24 h, 37 °C, 5-FAM labelled | reference: tissue over bath concentration | cartilage uptake ratio | ~24
CONC(=O)/C=C/c1cccc(S(=O)(=O)Nc2ccccc2)c1 | – | – | patients with mild liver dysfunction, plasma | intravenous, 400 mg/m^2 belinostat, single 30 min infusion, cycle 1 day -7, mean | – | AUC(0-inf) | 8050 ng·h/mL
Cc1cn(-c2ccc(-c3cc(C)c(N[C@@H](C)c4ccc(F)cc4)nn3)nc2O[11CH3])cn1 | – | – | rhesus macaque, male, arterial plasma | intravenous, 2 mCi, 30 min | – | parent compound in plasma | > 70%
Cn1cc(C(N)=O)c(NC2C3CC4CC2CC(O)(C4)C3)c2ccnc1-2 (stereo not shown) | – | – | Japanese adults, moderate hepatic impairment, plasma | oral, 150 mg single dose | – | Tmax (median) | 4 h
O=C(/C=C/c1coc2ccccc2c1=O)N1CCN(C(=S)SC2CC2)CC1 | tomato spotted wilt virus | viral infection, half-leaf method | Nicotiana glutinosa | 500 µg/mL | – | curative effect | 47.4 ± 3.6%
CCCC[C@@H]1NC(=O)[C@@H](NC(=O)[C@H](CCC(=O)O)NC(=O)CNC(=O)CN2CCN(CC(=O)O)CCN(CC(=O)O)CCN(CC(=O)O)CC2)CCCCNC(=O)C[C@@H](C(N)=O)NC(=O)[C@H](C(C)C)NC(=O)[C@@H]2CCCN2C(=O)[C@H](CCCNC(=N)N)NC(=O)CNC(=O)[C@H](Cc2c[nH]c3ccccc23)NC(=O)[C@H](CCCNC(=N)N)NC(=O)[C@@H](Cc2ccccc2)NC(=O)[C@H](Cc2c[nH]cn2)NC(=O)[C@H](CCC(=O)O)NC1=O [gallium-67 labelled] | – | – | normal C57 mice, blood | intravenous, 0.037 MBq/mouse, 4 h | – | tissue uptake | 0.19 ± 0.11 %ID/g
CC[C@H](C)[C@H](NC(=O)[C@H](Cc1ccccc1)NC(=O)[C@H](CC(=O)O)NC(=O)[C@H](CCCNC(=N)N)NC(=O)[C@H](Cc1ccccc1)NC(=O)[C@H](Cc1ccccc1)NC(=O)[C@H](CCCN)NC(=O)[C@H](CO)NC(=O)[C@H](CC(C)C)NC(=O)[C@H](CCCNC(=N)N)NC(=O)[C@H](CCSC)NC(=O)[C@H](C)N)C(=O)N[C@@H](CCCN)C(=O)N[C@@H](CCC(N)=O)C(=O)N[C@@H](CCCNC(=N)N)C(=O)N[C@@H](CCCCN)C(=O)N[C@@H](CCCCN)C(=O)O | – | circular dichroism | 20% TFE in PBS | 200 µM, pH 7.4, 25 °C | – | helicity | 18.1%
N=C(N)NCCC[C@@H]1NC(=O)[C@H](Cc2c[nH]c3ccccc23)NC(=O)[C@@H](CC2CCCCC2)NC(=O)[C@@H]2CCCN2C(=O)[C@@H](NC(=O)CCc2ccccc2)CCCNC1=O | – | – | C57BL/6J mouse, spinal cord | intraperitoneal, 1 mg/kg, single dose, two-compartment model | – | beta elimination rate constant | 0.24 h⁻¹
CC(=O)N[C@H](CCNC(=O)c1cc(NC(=O)c2cc(NC(=O)c3cc(NC(=O)c4nccn4C)cn3C)cn2C)cn1C)C(=O)Nc1cn(C)c(C(=O)Nc2cc(C(=O)Nc3cc(C(=O)Nc4cc(C(=O)NCCCN(C)CCCN[14C](=O)c5cccc([14C](=O)O)c5)n(C)c4)n(C)c3)n(C)c2)n1 | – | – | BALB/c male mice, prostate | intraperitoneal, 15 nmol per animal, 24 h | – | tissue concentration | < 0.1 mg/kg
CC1=C(/C=C/C(=O)N2CCN(C(N)=O)CC2)C(C)(C)CCC1 | – | – | female mice, plasma | oral, 40 mg/kg | – | Cmax | 9.32 nmol/g
Cc1cc2c(NC(=O)N[C@@H]3CC(C)(C)Oc4c(OC(F)(F)F)cccc43)cccc2cn1 | – | telemetry | male Sprague-Dawley rats | oral, 100 µmol/kg | – | body temperature decrease | 2 °C
O=C(C[c-]1cccc1)Oc1ccc(-n2cccc2)cc1.[Fe+2].c1cc[cH-]c1 | – | cyclic voltammetry | acetonitrile | – | reference: Ag/AgCl | Epc | 431 mV
COC(=O)c1ccc2c(c1)NC(=O)/C2=C(\Nc1ccc2c(c1)CCN2C(=O)CN1CCOCC1)c1ccccc1 | – | – | Caco-2 | 20 µM, 2 h | – | efflux ratio | ~1.1
CC(C)[C@H](NC(=O)[C@@H]1CCCN1C(=O)[C@H](CCCNC(=N)N)NC(=O)[C@H](CS)NC(=O)[C@H](Cc1c[nH]c2ccccc12)NC(=O)[C@H](CCCNC(=N)N)NC(=O)[C@@H](Cc1ccccc1)NC(=O)[C@H](Cc1c[nH]cn1)NC(=O)[C@H](CCC(=O)O)NC(=O)[C@H](CS)NC(=O)[C@H](CS)NC(=O)[C@@H]1CC(=O)N[C@@H](CCCNC(=N)N)C(=O)NCC(=O)N[C@@H](CC(=O)O)C(=O)N[C@H](Cc2ccc(O)cc2)C(=O)N1)C(N)=O [technetium-99m labelled] | – | – | C57 mouse, female, B16/F1 melanoma | intravenous, 0.037 MBq, 4 h | reference: tumour over blood | tumour to tissue ratio | 25.2
CC(=O)OCCn1c2ccc([N+](=O)[O-])cc2c(=O)n1Cc1ccccc1 | – | resazurin | peritoneal macrophages, BALB/c mice | 48 h, 10% FBS | – | CC50 | 403 ± 13.4 µM
Cn1c(=O)oc2ccc(-c3ccc(CC(C#N)NC(=O)C4CNCCCO4)c(F)c3)cc21 (stereo not shown) | – | item: chest pain | human volunteers | oral, dose not given | – | treatment-emergent adverse event incidence | 3.7%
COc1cc(NC(C)=O)c2c(c1O)-c1c(OC)c(OC)cc3c1C(C2)N(C)CC3 (stereo not shown) | – | – | male Wistar rat, plasma | intravenous, 100 mg/kg | – | MRT(0-t) | 1.63 h
CN1CCC[C@]1(C)/C=C/S(=O)(=O)NC(=O)Nc1c2c(cc3c1CCC3)CCC2 | – | – | human, urine | oral, 100 mg single dose | – | amount recovered in urine | 76.6 mg
CSCOC1C(=O)C2(C)C(OCSC)CC3OCC3(OC(C)=O)C2C(OC(=O)c2ccccc2)C2(O)CC(OC(=O)C(O)C(C=C(C)C)NC(=O)OC(C)(C)C)C(C)=C1C2(C)C (stereo not shown) | – | – | male Sprague-Dawley rat, plasma | intravenous, 1 mg/kg | – | MRT(0-t) | 4.4 h
Cc1ccc(OCC(=O)N(Cc2cccs2)c2ccn[nH]2)cc1 | – | – | female Sprague-Dawley rat, plasma | intravenous, 1 mg/kg, single dose | – | Cmax | 1330 ng/mL
CC(C)(Sc1cc[n+]([O-])cc1-c1ccc(C#N)c2ccccc12)C(=O)OC1OC(C(=O)O)C(O)C(O)C1O (stereo not shown) | – | – | adult men, plasma | oral, 15 mg verinurad, mild renal impairment | reference: normal renal function | AUC(0-inf) increase | 36%
COC(=O)C(Cc1c[nH]cn1)NC(=O)C1(C)C(O)CCC2(C)C1CCC1(C)C2CC=C2C3C(C)C(C)CCC3(C)CCC21C (stereo not shown) | – | – | rat faecal matter in buffer | 12 h, 37 °C | – | prodrug hydrolysed | 62.3%
CCCC[C@H](NC(=O)CNC(=O)CNC(=O)CN1CCN(CC(=O)O)CCN(CC(=O)O)CC1)C(=O)N[C@H]1CC(=O)NCCCC[C@@H](C(N)=O)NC(=O)[C@H](Cc2c[nH]c3ccccc23)NC(=O)[C@H](CCCNC(=N)N)NC(=O)[C@@H](Cc2ccccc2)NC(=O)[C@H](Cc2c[nH]cn2)NC1=O [gallium-67 labelled] | – | – | female C57 mice, B16/F1 melanoma | intravenous, 0.037 MBq, 2 h | reference: tumour over lung | tumour to tissue ratio | 46.4
OC1(C(F)(F)F)CCN(c2nc(Nc3ccnc(C(F)(F)F)c3)nc(-c3cccc(C(F)(F)F)n3)n2)C1 (stereo not shown) | – | – | Sprague-Dawley rat | oral, at least 25 mg/kg, 28 days, once daily | – | body weight gain | decreased

Excerpt of the above:
Compound | tested on | test | test system | conditions | how to read | quantity | value
CC(C)(Sc1cc[n+]([O-])cc1-c1ccc(C#N)c2ccccc12)C(=O)OC1OC(C(=O)O)C(O)C(O)C1O (stereo not shown) | – | – | adult men, plasma | oral, 15 mg verinurad, mild renal impairment | reference: normal renal function | AUC(0-inf) increase | 36%
Cn1c(=O)oc2ccc(-c3ccc(CC(C#N)NC(=O)C4CNCCCO4)c(F)c3)cc21 (stereo not shown) | – | item: chest pain | human volunteers | oral, dose not given | – | treatment-emergent adverse event incidence | 3.7%
CCCN(c1ccc(C(=O)NCCC(=O)O)cc1)S(=O)(=O)c1cc(C)c(-c2ccc(C(C)(C)C)cc2)c(C)c1 | – | – | mouse, HFD-induced obese | oral, 50 mg/kg once daily, 6 weeks | – | daily food intake | no effect
C[C@H](NC(=O)c1ccc2c(c1)C(=O)OC21c2ccc(O)cc2Oc2cc(O)ccc21)C(=O)N[C@@H](CCCCN)C(=O)N[C@@H](C)C(=O)N[C@@H](CCCCN)C(=O)N[C@@H](C)C(=O)N[C@@H](CCCCN)C(=O)N[C@@H](C)C(=O)N[C@@H](CCCCN)C(=O)N[C@@H](C)C(=O)N[C@@H](CCCCN)C(=O)N[C@@H](C)C(=O)N[C@@H](CCCCN)C(=O)N[C@@H](C)C(=O)N[C@@H](CCCCN)C(=O)N[C@@H](C)C(=O)N[C@@H](Cc1ccccc1)C(=O)N[C@@H](C)C(=O)N[C@@H](Cc1ccccc1)C(=O)N[C@@H](C)C(=O)N[C@@H](Cc1ccccc1)C(=O)O | – | – | bovine, healthy cartilage explants | 30 µM, 24 h, 37 °C, 5-FAM labelled | reference: tissue over bath concentration | cartilage uptake ratio | ~24
CC(=O)N[C@H](CCNC(=O)c1cc(NC(=O)c2cc(NC(=O)c3cc(NC(=O)c4nccn4C)cn3C)cn2C)cn1C)C(=O)Nc1cn(C)c(C(=O)Nc2cc(C(=O)Nc3cc(C(=O)Nc4cc(C(=O)NCCCN(C)CCCN[14C](=O)c5cccc([14C](=O)O)c5)n(C)c4)n(C)c3)n(C)c2)n1 | – | – | BALB/c male mice, prostate | intraperitoneal, 15 nmol per animal, 24 h | – | tissue concentration | < 0.1 mg/kg
